Assay results gathered from unrelated publications.
Protocols differ between the studies behind these lines. ± gives the spread as reported.
Cell line: U-251

`CC(=C(c1ccc(O)cc1)c1ccc(Cl)cc1)c1ccc(Cl)cc1` gave a GI50 of 0.57 µM (cell growth or viability, SRB).
With `COc1ccc(C2=Nn3c(NN=C4C(=O)N(Cc5ccccc5)c5ccc(Cl)cc54)nnc3SC2)cc1` the inhibition was 33% (cell growth or viability, SRB; 10 µM).
`COc1cc(/C=C/C(=O)/C=C(O)/C=C/c2ccc(OCC(=O)N3CCOCCOCCOCC3)c(OC)c2)ccc1OCC(=O)N1CCOCCOCCOCC1` gave an IC50 of 6.8 µM (cell growth or viability, SRB).
`O=C(/C=C/c1ccc2c(c1)C(=O)N(CCCc1ccccc1)CC2)NO` gave an IC50 of 7.68 ± 2.31 µM (cell growth, SRB; 72 h).
`C[C@H](CCC=O)[C@@H]1CC[C@]2(C)C3=C(CC[C@@]12C)[C@@]1(C)CC[C@H](O)C(C)(C)[C@@H]1CC3` gave an IC50 of 30.9 µM (cell growth or viability, SRB).
`CC/C=C\C/C=C\C/C=C\C/C=C\C/C=C\C/C=C\CCC(=O)Nc1ccn(C2OC(CO)C(O)C2(F)F)c(=O)n1` (stereo not drawn) gave a GI50 of 0.0305 µM (cell growth or viability, SRB).
With `O=C(c1cc(Cc2n[nH]c(=O)c3ccccc23)ccc1F)N1CCN(C(=O)C2CC2)CC1` the IC50 was 8 ± 1.2 µM (cell growth, MTT; 168 h).
For `CN1CCc2cc(Nc3ncc(C(F)(F)F)c(NCc4cc[nH]n4)n3)ccc2C1`, the IC50 was 4.45 µM (cell growth or viability, MTT; 72 h).
The inhibition of `COc1ccc(C2=Nn3c(NN=C4C(=O)N(C)c5ccc(Br)cc54)nnc3SC2)cc1` is reported as 15% (cell growth or viability, SRB; 10 µM).
The GI50 of `CCC(=C(c1ccc(Cl)cc1)c1ccc(OCCCN(C)C)cc1)c1ccc(OC)cc1` is reported as 1.66 µM (cell growth or viability, SRB).
`COc1cc(/C=C/C(=O)/C=C(O)/C=C/c2ccc(OCC(=O)N3CCOCCOCCOCCOCCOCC3)c(OC)c2)ccc1OCC(=O)N1CCOCCOCCOCCOCCOCC1` gave an inhibition of 13.8% (cell growth or viability, SRB; 5 µM).
With `CC(=O)OC[C@H]1O[C@@H](Sc2sc(C(=O)c3ccc(C)cc3)c(N)c2-c2nc3ccccc3s2)[C@H](OC(C)=O)[C@@H](OC(C)=O)[C@H]1OC(C)=O` the growth was 93.7% (SRB; 10 µM, 48 h; reference: untreated).

For quick reference, copied from above:
With `CC(=O)OC[C@H]1O[C@@H](Sc2sc(C(=O)c3ccc(C)cc3)c(N)c2-c2nc3ccccc3s2)[C@H](OC(C)=O)[C@@H](OC(C)=O)[C@H]1OC(C)=O` the growth was 93.7% (SRB; 10 µM, 48 h; reference: untreated).
